Experimental data gathered from unrelated publications.
Each numbered part is a random draw from the data of one study; scales do not carry over between parts.

Sample 1 — method: protein-binding microarray; form: double-stranded DNA, one strand shown; sample: in vitro; tested at: 250 nM; setting: 60-bp whole probe; added: salmon DNA 0.4 mg/ml; baseline: random background probes; reading: higher = stronger binding; endpoint: log fluorescence; constant ends, left off below: GCCTAGCAC … GTCTTGATTCGCTTGACGCTGCTG
Target: Interferon regulatory factor 5, full length, phosphomimetic (IRF5, Homo sapiens, UniProt Q13568-2, residues 1-514, K96S/S451D/S453D/S456D/S462D)
TCATCTATGTAGTTGATACTGTGCTAG: 0.321 z-score
TCAGTTTTCTGGTTCCCACTGTGCTAG: 1.28 z-score
TCATCTCTTATTCTAACACTGTGCTAG: 0.729 z-score
GACCGTATCCTTTTCCTGACGTGCTAG: 0.482 z-score
GACGGTTACGACACTGGGGACGTGCTA: -0.0729 z-score
TCATTCCTCTTTCTTTGACTGTGCTAG: 1.53 z-score
TTAGGACTGCTTTTACTTTAGTGCTAG: 0.34 z-score
GACGGACTGGAGTATCGGGACGTGCTA: 0.79 z-score
TCATTTTTTTTTTTTTTACTGTGCTAG: 1.26 z-score
GAGTCTTCCCTTTTAAGTTCGTGCTAG: 0.0312 z-score
GACGGGATCGGTATCGGGACGTGCTAG: 0.758 z-score
ATTTTTTAGCTTCTCAATTAGTGCTAG: 0.831 z-score
TTAGGTTTCGACTTTCGGGTAGTGCTA: 9.38 z-score
TTAGTACTGGGGTTTCGATTAGTGCTA: 5.24 z-score
GACGGTATCGGGTATCGGGACGTGCTA: 3.41 z-score
TTGTAAATCTTTTTCCCTATGTGCTAG: 0.868 z-score
CTGATTTCCACTTTCTTAATGTGCTAG: 2.14 z-score
TCAAATCTTGAGTTAGAACTGTGCTAG: -0.245 z-score
GAAGGTTTCGACTTTCGGGACGTGCTA: 7.99 z-score
TTAGTTATCAGTATCGATTAGTGCTAG: 8.02 z-score
GACGATCCCAGTCTCGAGACGTGCTAG: -0.239 z-score
TTAGATTCCAGTTTCGATTCGTGCTAG: 9.5 z-score
TTAGATATCAGCTTCGATTAGTGCTAG: 1.44 z-score
TTTTTTTTTTACTTCGGGTGGTGCTAG: 1.45 z-score

Sample 2 — method: RNA Bind-n-Seq; form: RNA; sample: in vitro; tested at: 365 nM; baseline: no-protein control; reading: higher = stronger binding; endpoint: RBNS enrichment (R)
Target: RNA binding protein fox-1 homolog 2, RRM domain, GST-SBP tag (RBFOX2, Homo sapiens, UniProt O43251-10, residues 100-194)
Setting: natural RNA segment, single round, ends assumed
Constant ends, left off below: GGGAGUUCUACAGUCCGACGAUC … UGGAAUUCUCGGGUGCCAA
Residues (chain): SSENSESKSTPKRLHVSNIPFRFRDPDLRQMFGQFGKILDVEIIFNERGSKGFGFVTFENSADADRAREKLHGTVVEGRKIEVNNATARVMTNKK
GAUGGAAAGGGAAUGUUCUGCUGGUUCUACCCUGUUUGUUGUGUCUUGCUAUACAGAAAAACCACAUUUCUUUUAUAUACUGUACGUGGGCAUAUCUUGUUGUUCAGUUU: 3.61
ACCAAAAGCUAAGGAUUGCCACCCAGCAUUCCAAGCAGACUUGUUUCCUAAAAGCAUCCUUCAUCUGCAUUCCAUCCUGGGUCAGCAUCAACCACAACAUAGCAGGCAUU: 2.8
GUUUAACUACAGAUGACUUCUGUUGUAGACUCACAAGUUUAACUGUUGUAUUAUAACAGUAUUACAUGUCAACGGUGUGGUUAUGACCUUUAUUUAUAUAAAAACCAAAU: 0.423
CAUUGUGAUGACUUUUUUGAUAUUCAUUAGAAACAAUACAUCCUUUCUGAGAUAUUUACAGUAUUAUUAAAAAAUGAAAAAGGUUGUACUGUUUUGCAUAAUGAACAUUU: 0.734
GCCAAUGAAAUGUAAUCCAACUUUUGAUUCUUCAUAUAUAUUUUUAACCACUUUAUGGGCUUUUUGUUUUGCUUUGGCCCUUUGCUGCCAUUAUUACACACAGGAGAGCC: 0.798
CACAUAGAUGCAUAGGAUGGAGUUCCCUGAGGAAAACAGCACUUGAGCAUGGUGAGGAGUAGCCAGGGUGAAUUUCACAACAUUUGUACUAGAUUUAGAUGCUCAAGAAU: 0.895
CUUUUAUUUCAUGUAAACUGCCCCUCUGAGGAUUUGGGCAUAUUUUUUGGAAGGUGCCUAAUGCUUAGGAUAGUCUCUAGGGUGAUGCACUGCACCUGCUUCCUUCCCUU: 0.743
GACAACUUCCUUCCUUUAAGAUGCUAAGUGGUGAACUUUACUGUUUUGUACAGUGAACUGUGACUUUGUUGAUGUUUGCUUUAGCUAUAUUCAAGGCAGUGGUCUGUGGC: 0.504
UGAAUGCCAUUGUGUGCCAGUUGCUCCCCUACCUCUGAUGACAUCUCUGUUCUCCCUGGGAAAGGUCAUCAUCUCUGUUCAGAUGGGGAAGUUGAGGCCCAGAGAAUUUA: 1.2
CGCUGUCAACAGAAGUUAUGGUUUGUAUGUGAGCCCUUUCCUCUCAACUGCUUUACUAAGGAGCAAUGUUGUCCUGCGCCGGCACACUCAAGAUGUAUCUGAGUAGCUGC: 0.368
CCACCGUGUCCCUGUUCUGCGCUAGCACUGCCUCCUGCUGCAGCCCCUGACUUGACCUCAGGGCCUGGGGAGGGAAGCACCAUACCAGGGCCAGGAGCUCCAACUCCGAC: 0.263
ACGGCAGCCCCAUCCUUCCCGCAGCACCAGCCUGAGCCACAGUGGGGCCCAUGGCCCCAGCUGGCUGGGUCGCCCCUCCUCGGGCGCCUGCGCUCCUCUGCAGCCUGAGC: 0.294

Sample 3 — method: protein binding microarray; form: double-stranded DNA, one strand shown; sample: in vitro; tested at: not given; baseline: not given; reading: higher = stronger binding; endpoint: E-score
Target: Histone acetyltransferase KAT6A, winged helix 1, GST fusion (KAT6A, Homo sapiens, UniProt Q92794, residues 1-85)
Setting: 8-mer, flanks averaged, mean of 2 arrays, mostly near background
Residues (chain): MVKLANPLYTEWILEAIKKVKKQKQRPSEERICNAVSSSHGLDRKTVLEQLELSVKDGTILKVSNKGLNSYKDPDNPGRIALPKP
CGCAAGAA: 0.195
CGGCGAGC: 0.344
GCCCTCGC: 0.234
TATTGCGA: 0.112
TCATATGA: -0.0506
GCGGGAGC: 0.347
GAATCCCA: -0.365
GCCTGCCC: 0.0715
CTTGCAAG: -0.103
GCCAATTA: -0.171
AAGCGAGG: 0.00212
ACTCTAAT: -0.148
CCCGAAAG: -0.045
CGCGTCTC: 0.262
CCTCACTC: -0.159
TAAATGCA: -0.134

Sample 4 — method: RNA Bind-n-Seq; form: RNA; sample: in vitro; tested at: 1 µM; setting: whole 134-nt RNA, ends assumed; added: 150 mM KCl; baseline: input library; reading: higher = stronger binding; endpoint: log2 enrichment
Target: Ras GTPase-activating protein-binding protein 1, C-terminal RGG region (G3BP1, Homo sapiens, UniProt Q13283)
Chain of UniProt Q13283 (whole entry, looked up): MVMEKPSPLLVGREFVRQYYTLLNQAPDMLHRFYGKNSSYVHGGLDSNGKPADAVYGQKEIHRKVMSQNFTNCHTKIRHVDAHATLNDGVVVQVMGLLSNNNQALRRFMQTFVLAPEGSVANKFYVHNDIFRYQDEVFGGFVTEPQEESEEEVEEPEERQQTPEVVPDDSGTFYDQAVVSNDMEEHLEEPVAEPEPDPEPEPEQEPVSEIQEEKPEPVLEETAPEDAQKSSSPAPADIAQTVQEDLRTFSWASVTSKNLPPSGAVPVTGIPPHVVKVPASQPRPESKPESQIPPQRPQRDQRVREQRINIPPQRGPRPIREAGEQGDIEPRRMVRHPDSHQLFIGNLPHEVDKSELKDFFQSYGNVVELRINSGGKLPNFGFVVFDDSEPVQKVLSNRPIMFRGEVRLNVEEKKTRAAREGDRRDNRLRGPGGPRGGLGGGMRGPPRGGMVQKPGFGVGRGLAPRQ
Constant ends, left off below: GGGAGUUCUACAGUCCGACGAUC … UGGAAUUCUCGGGUGUCAAGG
UGGCCCUGGUGGCAUGCGGGGAGGAAAAGGUGGCCUCAUGGAUCGUGGUGGUCCCGGUGGAAUGUUCAGAGGUGGCCGUGGUGGAGACAG: 2.18
UGUGCUACACAUCGUAUGUACCGAAUCGGGGAAAAAAAGGGGAAAAAAAGGGAAAAAAAGGGGAAAGUAUUAUGUUACGCCGUUCGGAUC: -0.709
UUUCGGCUACCCCCAGUUCUUCUUUGCCAAAGCGUACACGUGAAGAGGAAGAGGAUAGCACCAUAGAAGCAUCAGACCAAGUCUCUGAUG: -1.49
AGUCCUGUGCUACACAUCGUAUGUACCGAAUCGGGUGGGAAAAAAAGGGUUUUUGGGAAAGUAUUAUGUUACGCCGUUCGGAUCUGCACU: 0.0313
CAAGUCCUGUGCUACACAUCGUAUGUACCGAAUCGGGAGGGAAAAAAAGGGUGGGAAAGUAUUAUGUUACGCCGUUCGGAUCUGCACUUC: 0.921
UUAGGAAGAGAAGACAAGGUGGCCUCUCAUUAGAAGAAGAGGAAGAGGAGGAUGCCAAUUCAGAAUCUGAGGGAAGCAGUAGUGAGGAGG: -2.28
GUCCUGUGCUACACAUCGUAUGUACCGAAUCGGGGAAAGGGGAAAAAAAGGGGAGGGGAAAGUAUUAUGUUACGCCGUUCGGAUCUGCAC: 1.68
GUCCUGUGCUACACAUCGUAUGUACCGAAUCGUGUGUGUGUGUGUGUGUGUGUGUGUGAAAGUAUUAUGUUACGCCGUUCGGAUCUGCAC: 1.46
CAAGUCCUGUGCUACACAUCGUAUGUACCGAAUCGGGGAGGGGUGGGGUUUGGGGAAAGUAUUAUGUUACGCCGUUCGGAUCUGCACUUC: 2.46
UGGCCCUGGUGGCAUGCGGGGAAGAAGAGGUGGCCUCAUGGAUCGUGGUGGUCCCGGUGGAAUGUUCAGAGGUGGCCGUGGUGGAGACAG: 2.28
UGGGAGGUGGAUUUUGUUUAUUUUUUUAGCUCAUUUCCAGGGGUGGGAAUUUUUUUUUAAUAUGUGUCAUGAAUGAAGUUGUUUUUGAAA: 2.75
UUCCUCAAGUCCUGUGCUACACAUCGUAUGUACCGAAUCGGCGGCGGCGGGAAAGUAUUAUGUUACGCCGUUCGGAUCUGCACUUCCAGC: -0.578
AGUCCUGUGCUACACAUCGUAUGUACCGAAUCGGCCCCGGGGCCCCGGGCCCCGGGGAAAGUAUUAUGUUACGCCGUUCGGAUCUGCACU: -2.88
CCUGUGCUACACAUCGUAUGUACCGAAUCGGGCCCCCCGGGGCCCCCCGGGGCCCCCCGGGAAAGUAUUAUGUUACGCCGUUCGGAUCUG: -1.94

Repeated from above (sample 4):
UGGCCCUGGUGGCAUGCGGGGAGGAAAAGGUGGCCUCAUGGAUCGUGGUGGUCCCGGUGGAAUGUUCAGAGGUGGCCGUGGUGGAGACAG: 2.18
UGUGCUACACAUCGUAUGUACCGAAUCGGGGAAAAAAAGGGGAAAAAAAGGGAAAAAAAGGGGAAAGUAUUAUGUUACGCCGUUCGGAUC: -0.709
UUUCGGCUACCCCCAGUUCUUCUUUGCCAAAGCGUACACGUGAAGAGGAAGAGGAUAGCACCAUAGAAGCAUCAGACCAAGUCUCUGAUG: -1.49
AGUCCUGUGCUACACAUCGUAUGUACCGAAUCGGGUGGGAAAAAAAGGGUUUUUGGGAAAGUAUUAUGUUACGCCGUUCGGAUCUGCACU: 0.0313
CAAGUCCUGUGCUACACAUCGUAUGUACCGAAUCGGGAGGGAAAAAAAGGGUGGGAAAGUAUUAUGUUACGCCGUUCGGAUCUGCACUUC: 0.921
